Experimental data collected from several papers.
Numbered parts are unrelated; each lists some results of a single study. Several values in a cell are separate wells, animals, samples, runs or records. ± marks the error that the study gave.
UniProt Q16659, sequence (whole entry, looked up): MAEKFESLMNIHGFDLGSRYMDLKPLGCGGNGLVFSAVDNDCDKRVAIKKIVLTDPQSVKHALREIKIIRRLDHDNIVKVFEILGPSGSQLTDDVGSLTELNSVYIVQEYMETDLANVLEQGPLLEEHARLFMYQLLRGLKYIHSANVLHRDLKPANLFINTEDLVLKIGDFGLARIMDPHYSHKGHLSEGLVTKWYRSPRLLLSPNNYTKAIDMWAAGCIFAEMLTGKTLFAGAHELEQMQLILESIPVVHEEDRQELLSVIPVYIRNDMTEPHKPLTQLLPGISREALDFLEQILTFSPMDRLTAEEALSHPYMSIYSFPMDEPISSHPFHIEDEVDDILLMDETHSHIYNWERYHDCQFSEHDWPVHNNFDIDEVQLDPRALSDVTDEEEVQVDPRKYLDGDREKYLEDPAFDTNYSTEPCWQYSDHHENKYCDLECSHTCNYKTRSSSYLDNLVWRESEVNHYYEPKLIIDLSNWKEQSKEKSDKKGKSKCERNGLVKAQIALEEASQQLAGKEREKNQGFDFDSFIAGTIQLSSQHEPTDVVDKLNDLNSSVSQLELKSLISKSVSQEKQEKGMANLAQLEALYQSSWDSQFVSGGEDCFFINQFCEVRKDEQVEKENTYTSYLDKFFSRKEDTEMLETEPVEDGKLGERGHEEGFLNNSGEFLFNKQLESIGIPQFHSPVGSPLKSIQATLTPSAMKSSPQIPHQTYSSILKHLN
UniProt Q8IY84, sequence (whole entry, looked up): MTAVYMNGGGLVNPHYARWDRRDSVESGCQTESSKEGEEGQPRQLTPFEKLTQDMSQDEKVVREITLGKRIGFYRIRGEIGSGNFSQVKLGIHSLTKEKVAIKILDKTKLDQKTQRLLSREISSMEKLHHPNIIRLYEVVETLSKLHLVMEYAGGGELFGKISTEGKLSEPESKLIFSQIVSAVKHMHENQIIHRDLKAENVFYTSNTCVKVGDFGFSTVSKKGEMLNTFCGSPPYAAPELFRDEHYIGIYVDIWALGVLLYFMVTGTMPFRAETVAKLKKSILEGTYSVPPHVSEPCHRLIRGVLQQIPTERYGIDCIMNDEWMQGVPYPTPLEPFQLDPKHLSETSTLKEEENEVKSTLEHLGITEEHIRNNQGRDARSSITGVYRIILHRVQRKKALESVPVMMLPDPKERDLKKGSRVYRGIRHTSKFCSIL
UniProt Q9Y2H9, sequence (whole entry, looked up): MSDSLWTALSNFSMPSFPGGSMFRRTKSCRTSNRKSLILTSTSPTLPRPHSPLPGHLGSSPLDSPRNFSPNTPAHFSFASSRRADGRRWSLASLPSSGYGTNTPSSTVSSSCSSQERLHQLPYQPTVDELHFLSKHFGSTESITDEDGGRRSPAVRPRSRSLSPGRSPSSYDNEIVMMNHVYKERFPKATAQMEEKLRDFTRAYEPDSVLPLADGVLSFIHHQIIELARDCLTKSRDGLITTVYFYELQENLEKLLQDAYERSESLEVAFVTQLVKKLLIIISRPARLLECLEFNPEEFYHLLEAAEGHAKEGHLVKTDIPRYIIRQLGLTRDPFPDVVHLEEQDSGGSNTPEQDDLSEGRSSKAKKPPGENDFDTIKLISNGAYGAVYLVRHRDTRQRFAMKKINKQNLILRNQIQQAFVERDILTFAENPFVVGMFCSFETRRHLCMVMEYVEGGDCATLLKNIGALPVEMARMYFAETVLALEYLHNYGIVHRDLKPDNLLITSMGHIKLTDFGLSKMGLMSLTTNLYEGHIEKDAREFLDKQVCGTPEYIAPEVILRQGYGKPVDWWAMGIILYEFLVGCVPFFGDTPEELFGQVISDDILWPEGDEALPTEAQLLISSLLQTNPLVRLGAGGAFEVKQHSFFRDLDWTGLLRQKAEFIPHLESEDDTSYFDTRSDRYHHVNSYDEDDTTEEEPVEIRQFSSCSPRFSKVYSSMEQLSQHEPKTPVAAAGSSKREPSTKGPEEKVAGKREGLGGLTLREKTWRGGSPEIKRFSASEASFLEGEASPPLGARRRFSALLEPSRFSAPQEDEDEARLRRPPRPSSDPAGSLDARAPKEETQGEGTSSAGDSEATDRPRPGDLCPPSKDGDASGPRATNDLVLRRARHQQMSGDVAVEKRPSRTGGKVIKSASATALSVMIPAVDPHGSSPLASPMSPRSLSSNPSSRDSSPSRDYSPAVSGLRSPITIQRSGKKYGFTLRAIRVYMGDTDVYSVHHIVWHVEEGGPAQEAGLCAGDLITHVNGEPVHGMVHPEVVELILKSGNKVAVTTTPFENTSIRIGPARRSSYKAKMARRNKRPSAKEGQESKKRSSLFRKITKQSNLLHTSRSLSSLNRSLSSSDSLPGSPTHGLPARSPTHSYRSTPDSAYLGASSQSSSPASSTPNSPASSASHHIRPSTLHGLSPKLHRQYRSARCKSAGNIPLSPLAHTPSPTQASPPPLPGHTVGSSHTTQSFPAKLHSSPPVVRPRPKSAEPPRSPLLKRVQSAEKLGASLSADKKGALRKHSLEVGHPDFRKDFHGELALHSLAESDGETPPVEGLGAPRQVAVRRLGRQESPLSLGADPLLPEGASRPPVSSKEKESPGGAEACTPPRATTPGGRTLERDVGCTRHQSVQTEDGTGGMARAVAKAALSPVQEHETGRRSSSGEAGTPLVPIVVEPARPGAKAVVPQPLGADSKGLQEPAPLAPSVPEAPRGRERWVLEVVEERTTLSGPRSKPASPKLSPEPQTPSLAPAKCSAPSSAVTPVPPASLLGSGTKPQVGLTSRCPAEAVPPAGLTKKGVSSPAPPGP
UniProt Q6ZWH5, sequence (whole entry, looked up): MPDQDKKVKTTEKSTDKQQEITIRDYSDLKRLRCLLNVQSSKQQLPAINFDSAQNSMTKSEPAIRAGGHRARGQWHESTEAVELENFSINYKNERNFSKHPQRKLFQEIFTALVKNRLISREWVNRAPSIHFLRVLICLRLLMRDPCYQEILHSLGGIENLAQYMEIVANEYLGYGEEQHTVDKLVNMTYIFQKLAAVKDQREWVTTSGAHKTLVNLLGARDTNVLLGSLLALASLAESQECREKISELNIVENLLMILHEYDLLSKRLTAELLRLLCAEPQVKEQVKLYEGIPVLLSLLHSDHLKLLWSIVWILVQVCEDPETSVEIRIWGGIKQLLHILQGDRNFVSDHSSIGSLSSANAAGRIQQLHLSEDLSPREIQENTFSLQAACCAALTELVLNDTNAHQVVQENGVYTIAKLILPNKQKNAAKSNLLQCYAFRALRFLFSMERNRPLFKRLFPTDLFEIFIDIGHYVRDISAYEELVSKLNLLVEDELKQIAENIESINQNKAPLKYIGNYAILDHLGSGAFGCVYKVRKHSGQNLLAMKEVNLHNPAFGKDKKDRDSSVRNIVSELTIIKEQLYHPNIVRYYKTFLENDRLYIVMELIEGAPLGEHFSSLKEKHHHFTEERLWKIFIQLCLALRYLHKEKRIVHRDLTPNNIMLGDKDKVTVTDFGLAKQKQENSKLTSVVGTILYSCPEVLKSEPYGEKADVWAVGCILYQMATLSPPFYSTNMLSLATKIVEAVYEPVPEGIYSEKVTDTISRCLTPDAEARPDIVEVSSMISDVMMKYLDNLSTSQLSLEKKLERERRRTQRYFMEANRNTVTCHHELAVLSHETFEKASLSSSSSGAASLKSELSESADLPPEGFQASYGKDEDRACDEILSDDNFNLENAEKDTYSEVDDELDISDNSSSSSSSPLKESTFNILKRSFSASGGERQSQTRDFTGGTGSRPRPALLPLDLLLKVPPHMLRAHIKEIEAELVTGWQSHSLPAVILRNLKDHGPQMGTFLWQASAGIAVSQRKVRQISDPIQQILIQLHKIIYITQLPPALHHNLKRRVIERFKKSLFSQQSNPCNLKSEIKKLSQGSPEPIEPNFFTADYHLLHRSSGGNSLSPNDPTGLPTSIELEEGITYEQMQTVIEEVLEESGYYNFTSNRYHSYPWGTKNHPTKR
UniProt P49759, sequence (whole entry, looked up): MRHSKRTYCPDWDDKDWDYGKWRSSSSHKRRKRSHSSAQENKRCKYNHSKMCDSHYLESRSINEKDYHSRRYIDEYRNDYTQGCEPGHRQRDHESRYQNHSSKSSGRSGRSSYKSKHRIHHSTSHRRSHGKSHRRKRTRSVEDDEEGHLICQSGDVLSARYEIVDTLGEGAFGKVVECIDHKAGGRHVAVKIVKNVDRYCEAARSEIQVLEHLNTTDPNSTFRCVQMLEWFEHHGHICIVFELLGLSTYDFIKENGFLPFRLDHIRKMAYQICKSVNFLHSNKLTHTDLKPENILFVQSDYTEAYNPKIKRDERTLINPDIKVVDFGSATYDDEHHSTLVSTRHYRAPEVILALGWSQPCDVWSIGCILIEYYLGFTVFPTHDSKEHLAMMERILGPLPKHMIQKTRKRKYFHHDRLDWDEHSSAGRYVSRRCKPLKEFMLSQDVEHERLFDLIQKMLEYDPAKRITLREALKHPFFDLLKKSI

Series 1 — cell line: mouse MPNST tumor cells; method: high-content nuclear imaging; refers to: cell number; tested at: 10 µM; time: 12 h; notes: mean of 2 replicates; reference: plate mean; direction: higher = more cells; measurement: nuclei count
SMILES = NC(N)=NCC1COC2(CCCCC2)O1 (stereo not drawn); result = 1.96 z-score
SMILES = Cc1ccc([N+](=O)[O-])cc1S(=O)(=O)N(C)C; result = 1.42 z-score
SMILES = CC[C@H]1OC(=O)[C@H](C)[C@@H](O[C@H]2C[C@@](C)(OC)[C@@H](O)[C@H](C)O2)[C@H](C)[C@@H](O[C@@H]2O[C@H](C)C[C@H](N(C)C)[C@H]2O)[C@](C)(O)C[C@@H](C)CN(C)[C@H](C)[C@@H](O)[C@]1(C)O; result = 2.75 z-score and 4.02 z-score and 2.61 z-score
SMILES = CCn1c(=O)[nH]c2ccccc21; result = 0.637 z-score

Series 2 — cell line: HaCaT; tested at: 100 µM; time: 18 h; measurement: viability
SMILES = CC(=O)O[C@H]1C[C@@]2(C)[C@@H](C[C@@H](O)[C@H]3[C@@]4(C)CC[C@@H](O)[C@@H](C)[C@@H]4CC[C@@]32C)/C1=C(\CCC=C(C)C)C(=O)O; result = 99.4%
SMILES = O[C@H](CNC[C@@H](O)[C@H]1CCc2cc(F)ccc2O1)[C@@H]1CCc2cc(F)ccc2O1; result = 16.1%
SMILES = COC(=O)C1=CO[C@@H](O[C@@H]2O[C@H](CO)[C@@H](O)[C@H](O)[C@H]2O)[C@@H]2[C@@H](C)[C@@H](O)C[C@H]12; result = 112%
SMILES = N[C@@H](C(=O)N[C@@H]1C(=O)N2C(C(=O)O)=C(Cl)CS[C@H]12)c1ccccc1; result = 108%
SMILES = CC1(C)O[C@@H]2C[C@H]3[C@@H]4CCC5=CC(=O)C=C[C@]5(C)[C@@]4(F)[C@@H](O)C[C@]3(C)[C@]2(C(=O)CO)O1; result = 96.1%

Series 3 — tested at: 10 µM; measurement: ΔTm
Structure (SMILES): Oc1ccc(-c2nc(-c3ccncc3)c(-c3ccc(F)cc3)[nH]2)cc1
target = ATPase family AAA domain-containing protein 2B (ATAD2B, Homo sapiens, UniProt Q9ULI0); test = thermal stability, DSF; result = 0.15 °C
target = Bromodomain-containing protein 4, BD2 (BRD4, Homo sapiens, UniProt O60885); test = thermal stability, DSF; result = 0.83 °C
target = Tyrosine-protein kinase BAZ1B (BAZ1B, Homo sapiens, UniProt Q9UIG0); test = thermal stability, DSF; result = 0.52 °C
target = Protein polybromo-1, BD3 (PBRM1, Homo sapiens, UniProt Q86U86); test = thermal shift; result = -0.57 ± 0.14 °C

Series 4 — species: human; sample: microsomes or S9; tested at: 2 µM; time: 0.5 h; measurement: remaining compound
SMILES = O=C(CN1C(C(=O)c2ccccc2)=C(O)c2ccccc2S1(=O)=O)Nc1ccc(Br)cc1F; result = 15.7%
SMILES = CC(C)c1noc(CCCn2ccc(-c3ccc(Br)cc3)n2)n1; result = 56.1%
SMILES = O=c1[nH]ccc2c(Cc3nnc4ccc(-c5cccc6c5oc5ccccc56)nn34)cccc12; result = 43.6%
SMILES = CC(=O)c1c(Nc2ccc(F)cc2)nn(-c2ccccc2)c1C; result = 6.34%

Series 5 — organism: Plasmodium berghei; action: inhibitor; cells: Huh-7; strain: liver stage; tested at: 10 µM; time: 24 h; reference: untreated control; measurement: infection rate
SMILES = CC12CC3CC(C)(C1)CC(N)(C3)C2; result = 101%
SMILES = CC1=C(/C=C/C(C)=C/C=C/C(C)=C\C(=O)O)C(C)(C)CCC1; result = 96.3%
SMILES = Cc1c(OCC(F)(F)F)ccnc1C[S+]([O-])c1nc2ccccc2[nH]1 (stereo not drawn); result = 60.6%
SMILES = NNc1nncc2ccccc12; result = 105%

Series 6 — tested at: 1 µM; measurement: remaining binding
Structure (SMILES): Cc1nc(N2CC[C@@H](O)C2)ncc1-c1cc(C(F)(F)F)cc2[nH]ncc12
target = Mitogen-activated protein kinase 1 (MAPK1, Homo sapiens, UniProt P28482); test = binding, competition with immobilised ligand; result = 100%
target = Serine/threonine-protein kinase PAK 1 (PAK1, Homo sapiens, UniProt Q13153); test = cell-free assay, competition with immobilised ligand; result = 100%
target = Serine/threonine-protein kinase SIK1 (SIK1, Homo sapiens, UniProt P57059); test = competition binding; result = 90%
target = Serine/threonine-protein kinase TAO3 (TAOK3, Homo sapiens, UniProt Q9H2K8); test = binding, competition with immobilised ligand; result = 82%
target = Cyclin-dependent kinase 18 (CDK18, Homo sapiens, UniProt Q07002); test = binding, competition with immobilised ligand; result = 100%
target = Serine/threonine-protein kinase N2 (PKN2, Homo sapiens, UniProt Q16513); test = binding, competition with immobilised ligand; result = 72%
target = Serine/threonine-protein kinase NIM1 (NIM1K, Homo sapiens, UniProt Q8IY84); test = binding, competition with immobilised ligand; result = 71%
target = Ribosomal protein S6 kinase alpha-4, C-terminal kinase domain (RPS6KA4, Homo sapiens, UniProt O75676); test = binding, competition with immobilised ligand; result = 68%
target = Serine/threonine-protein kinase Nek10 (NEK10, Homo sapiens, UniProt Q6ZWH5); test = binding, competition with immobilised ligand; result = 96%
target = Vascular endothelial growth factor receptor 2 (KDR, Homo sapiens, UniProt P35968); test = cell-free assay, competition with immobilised ligand; result = 53%
target = Dual specificity protein kinase CLK1 (CLK1, Homo sapiens, UniProt P49759); test = binding, competition with immobilised ligand; result = 87%
target = Serine/threonine-protein kinase Nek11 (NEK11, Homo sapiens, UniProt Q8NG66); test = binding, competition with immobilised ligand; result = 87%
target = Mitogen-activated protein kinase 6 (MAPK6, Homo sapiens, UniProt Q16659); test = binding, competition with immobilised ligand; result = 83%
target = Microtubule-associated serine/threonine-protein kinase 1 (MAST1, Homo sapiens, UniProt Q9Y2H9); test = binding, competition with immobilised ligand; result = 100%
target = Dual specificity protein kinase CLK2 (CLK2, Homo sapiens, UniProt P49760); test = binding, competition with immobilised ligand; result = 100%
target = Proto-oncogene tyrosine-protein kinase receptor Ret (RET, Homo sapiens, UniProt P07949, M918T); test = cell-free assay, competition with immobilised ligand; result = 100%
target = Cyclin-dependent kinase-like 2 (CDKL2, Homo sapiens, UniProt Q92772); test = binding, competition with immobilised ligand; result = 100%
target = Activated CDC42 kinase 1 (TNK2, Homo sapiens, UniProt Q07912); test = binding, competition with immobilised ligand; result = 90%
target = Mast/stem cell growth factor receptor Kit (KIT, Homo sapiens, UniProt P10721, D816H); test = cell-free assay, competition with immobilised ligand; result = 53%
target = Leucine-rich repeat serine/threonine-protein kinase 2 (LRRK2, Homo sapiens, UniProt Q5S007, G2019S); test = binding, competition with immobilised ligand; result = 67%
target = Calcium/calmodulin-dependent protein kinase type II subunit gamma (CAMK2G, Homo sapiens, UniProt Q13555); test = binding, competition with immobilised ligand; result = 100%
target = Tyrosine-protein kinase Lyn (LYN, Homo sapiens, UniProt P07948); test = cell-free assay, competition with immobilised ligand; result = 100%
target = Epidermal growth factor receptor (EGFR, Homo sapiens, UniProt P00533, A750P/del747-749); test = cell-free assay, competition with immobilised ligand; result = 64%
target = Ephrin type-B receptor 2 (EPHB2, Homo sapiens, UniProt P29323); test = cell-free assay, competition with immobilised ligand; result = 100%

Single results of other studies
CAMK2A: Calcium/calmodulin-dependent protein kinase type II subunit alpha (CAMK2A, Homo sapiens, UniProt Q9UQM7)
UniProt Q9UQM7, sequence (whole entry, looked up): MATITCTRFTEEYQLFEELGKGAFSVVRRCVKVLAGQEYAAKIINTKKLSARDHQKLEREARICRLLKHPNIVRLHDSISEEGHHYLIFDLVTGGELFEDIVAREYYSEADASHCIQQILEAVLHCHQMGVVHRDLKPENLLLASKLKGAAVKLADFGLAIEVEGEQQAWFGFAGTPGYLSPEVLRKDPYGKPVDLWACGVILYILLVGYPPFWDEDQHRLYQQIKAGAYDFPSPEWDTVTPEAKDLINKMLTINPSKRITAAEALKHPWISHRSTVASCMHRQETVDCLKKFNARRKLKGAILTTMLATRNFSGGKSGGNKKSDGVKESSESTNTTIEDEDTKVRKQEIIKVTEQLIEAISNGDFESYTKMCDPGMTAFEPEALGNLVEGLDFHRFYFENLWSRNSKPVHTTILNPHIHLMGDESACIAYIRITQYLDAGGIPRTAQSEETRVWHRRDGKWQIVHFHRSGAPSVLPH
SMILES = CC(C)(C)CC(=O)OCC(=O)[C@@]1(O)CC[C@H]2[C@@H]3CCC4=CC(=O)C=C[C@]4(C)[C@H]3[C@@H](O)C[C@@]21C; target = CAMK2A; test = enzyme activity, inhibitor; setting = 10 µM; measurement = inhibition; result = -4%
SMILES = Cc1ccc(NC(=O)c2ccnc(C(F)(F)F)c2)cc1-c1cc(OCCO)nc(N2CCOCC2)c1; target = Testis-specific serine/threonine-protein kinase 1 (TSSK1B, Homo sapiens, UniProt Q9BXA7); test = competitive binding panel; setting = 1 µM; how to read = reference: vehicle; measurement = remaining binding; result = 88%
SMILES = CC(=O)O[C@H](CC=C(C)C)C1=CC(=O)c2c(O)ccc(O)c2C1=O; target = CAMK2A; test = enzyme activity, inhibitor; setting = 10 µM; measurement = inhibition; result = -5%
